Measurements gathered from unrelated publications.
± marks the error that the study gave.

CCCCC/C=C/C(=O)CCc1ccc(O)c(OC)c1 — IC50 (mAb 6-AT6; antibody binding, indirect competitive ELISA; together with: coating antigen 3-OVA): > 4 µg/mL
Oc1ccc(F)cc1-c1nc2c(Cl)cc(Cl)cc2[nH]1 — IC50 (NF-κB (human); reporter gene, inhibitor; HEK293 NF-κB luciferase reporter; together with: TNFα): 27600 ± 13500 nM
CC(C)C[C@@H](/C=C/S(C)(=O)=O)NC(=O)[C@H](CC(C)C)NC(=O)[C@@H](NC(=O)N[C@H](C(=O)OC(C)(C)C)C(C)C)C(C)C — IC50 (rabbit 26S proteasome beta5; chymotrypsin-like activity; 30 min, 37 °C, together with: Suc-LLVY-AMC): 1000 nM
Nc1nc2c(N)[n+]3cnc2n1[C@@H]1O[C@H](COP(=O)([O-])OP(=O)(O)OC[C@H]2O[C@@H]3[C@H](O)[C@@H]2O)[C@@H](O)[C@H]1O — IC50 (cADPR receptor; Ca2+ release, antagonist; permeabilised Jurkat T cells; together with: cADPR): 1000 nM
COc1cc(CCC(C)=O)ccc1O — IC50 (mAb 6-AT6; antibody binding, indirect competitive ELISA; together with: coating antigen 2-OVA): > 4 µg/mL
Oc1cc(C(F)(F)F)ccc1-c1nc2c(C(F)(F)F)cc(C(F)(F)F)cc2[nH]1 — IC50 (NF-κB (human); reporter gene, inhibitor; HEK293 NF-κB luciferase reporter; together with: TNFα): 209 ± 110 nM
COCCNc1nc(-c2nccn2C)nc2sc(-c3cccc(OC)c3Cl)c(-c3ccccc3)c12 — IC50 (Ras; Ras-GTP complex formation, inhibitor, GTP pull-down; NCI-H1975; 6 h, together with: EGF 15 min): 1000 to 3000 nM
CC(C)c1cnc(-c2cc(Cl)ccc2F)cc1Nc1ccncc1C(=O)NC(CO)CO — IC50 (TGF-β receptor type 1 (human); SMAD2 Ser465/467 phosphorylation, inhibitor; MDA-MB-231; unbound drug, together with: TGF-β): 17.3 ± 0.77 nM
COc1cc(/C=C/c2ccc(N)cc2)cc(OC)c1OC — IC50 (human ornithine decarboxylase; enzyme activity, inhibitor; T24; together with: TPA): 13100 ± 2600 nM

Some of these lines once more:
Oc1cc(C(F)(F)F)ccc1-c1nc2c(C(F)(F)F)cc(C(F)(F)F)cc2[nH]1 — IC50 (NF-κB (human); reporter gene, inhibitor; HEK293 NF-κB luciferase reporter; together with: TNFα): 209 ± 110 nM
